Assay results collected from several papers.
Compare with care: the assays were run in different laboratories.
Target: Histamine H1 receptor (HRH1, Homo sapiens, UniProt P35367)
Chain of UniProt P35367 (whole entry, looked up): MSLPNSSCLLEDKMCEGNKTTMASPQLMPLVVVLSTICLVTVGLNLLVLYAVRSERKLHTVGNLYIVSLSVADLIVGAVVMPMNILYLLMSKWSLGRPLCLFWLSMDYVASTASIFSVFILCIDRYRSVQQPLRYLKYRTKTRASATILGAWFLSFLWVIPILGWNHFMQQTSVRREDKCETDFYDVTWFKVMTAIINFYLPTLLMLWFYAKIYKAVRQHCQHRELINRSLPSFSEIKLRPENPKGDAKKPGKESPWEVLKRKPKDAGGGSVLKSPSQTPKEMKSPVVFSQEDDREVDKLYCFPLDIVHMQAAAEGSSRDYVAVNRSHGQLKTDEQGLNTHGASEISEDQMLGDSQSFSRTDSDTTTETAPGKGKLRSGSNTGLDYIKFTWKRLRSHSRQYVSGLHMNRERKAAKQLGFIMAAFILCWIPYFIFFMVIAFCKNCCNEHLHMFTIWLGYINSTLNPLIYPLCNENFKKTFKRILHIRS

For `COCC(=O)N1CCc2cc(-c3csc(NC(=O)c4cc(OC)cc(OC)c4)n3)ccc21`, the inhibition was 9% (cell-free assay; 10 µM).
For `CNC(=O)C[C@H](Cc1ccc(C#N)cc1)NC(=O)c1cc(-c2ccc(CN[C@H](C)c3ccc(C)cc3)o2)ccc1Cl`, the inhibition was -5% (agonist response, antagonist; human cells; 10 µM, H1 antagonist).
For `CO[C@@H](C)c1c(NC(=O)Nc2cnc(-n3nccn3)c(C(F)(F)F)c2)cnc2sc(C)nc12`, the inhibition was 4.8% (ligand displacement, radioligand; 10 µM).
`COc1ccc(C#CC2=C[C@H]3C[C@@]4(OC(=O)C=C24)[C@H]2CC[C@H](C(OC)OC)N32)cc1` gave an inhibition of 47% (ligand displacement, radioligand; 10 µM).
For `COc1ccc(S(=O)(=O)N2CCc3ccccc3C2)cc1N1CCN(C(=O)c2ccc(F)cc2C(F)(F)F)CC1`, the inhibition was 5.6% (ligand displacement, radioligand; 1 µM).
With `CC(C)Cn1c(SCC(=O)N2CCc3ccccc3C2)nc2cc(Cl)ccc2c1=O` the inhibition was -2% (ligand displacement, radioligand; 10 µM).
With `COc1ccc(C(=O)Nc2c(-c3cccs3)nc3ccccn23)cc1` the inhibition was < 50% (ligand displacement, radioligand; 10 µM).
The inhibition of `O=C1c2sc(-c3ccc(N4CCC(F)C4)nc3F)nc2CCN1c1cccnc1` (stereo not drawn) is reported as 2% (ligand displacement, radioligand; 1 µM).
`CCC(=O)N(C)c1ccc(Cl)c(Cl)c1` has an inhibition of < 10% (ligand displacement, radioligand; 10 µM).
`Cn1ccc2cc(-n3c(=O)[nH]c4sc5c(c4c3=O)CCCC5)ccc21` has an inhibition of 6% (cell-free assay, radioligand; 10 µM).
`COc1ncc2nc(C)n(Cc3ncc(S(N)(=O)=O)cc3F)c2c1-c1ccccc1` gave an inhibition of -7.53% (antagonist, cell-based; 10 µM).
`Cc1[nH]nc2c1N=C(c1ccccc1Cl)c1cnc(N3CCOCC3)cc1N2` gave an inhibition of 1% (cell-free assay; 10 µM).

Some of these lines once more:
For `CNC(=O)C[C@H](Cc1ccc(C#N)cc1)NC(=O)c1cc(-c2ccc(CN[C@H](C)c3ccc(C)cc3)o2)ccc1Cl`, the inhibition was -5% (agonist response, antagonist; human cells; 10 µM, H1 antagonist).
